Assay results collected from several papers.
Several values in a cell are separate wells, animals, samples, runs or records. ± marks the error that the study gave.
CASP8: Caspase-8 (CASP8, Homo sapiens, UniProt Q14790)
TARDBP aggregated: TAR DNA-binding protein 43, aggregated (TARDBP, Homo sapiens, UniProt Q13148)
DCPS: m7GpppX diphosphatase (DCPS, Homo sapiens, UniProt Q96C86)
CASP10: Caspase-10 (CASP10, Homo sapiens, UniProt Q92851)

SMILES	target	test	test system	conditions	how to read	endpoint	value
C=C1C(=O)C2(C(=O)N3CCOCC3)CC(=O)CC1C2 (racemic)	PTPN11 (Homo sapiens, UniProt Q06124)	enzyme activity, covalent inhibitor	–	added: pNPP substrate	–	kinact/KI	16 M⁻¹ s⁻¹
C#CCCCCNC(=O)c1ccc(N(C(=O)C=C)c2ccc(Br)cc2)cc1	Cytoskeleton-associated protein 4 (Homo sapiens, UniProt Q07065)	mass spectrometry profiling	Ramos cell lysate	100 µM over 10 µM, UniProt Q07065	baseline: high over low concentration	reactivity ratio	1.08
COc1ncc2nc(C)n(Cc3ncc(S(N)(=O)=O)cc3F)c2c1-c1ccccc1	GABA-A receptor; alpha-1/beta-2/gamma-2 (Homo sapiens, UniProt P14867+P18507+P47870)	agonist, cell-based	–	10 µM	–	activation	0.28%
C=CC(=O)N1CCN2c3nc(OC[C@@H]4C[C@@H](F)CN4C)nc4cc(-c5nc(N)cc(C)c5C(F)(F)F)c(Cl)c(c34)OC[C@@H]2C1	GTPase KRas, GDP-bound (KRAS, Homo sapiens, UniProt P01116, G13D)	TR-FRET nucleotide exchange	–	–	baseline: WT IC50 over G13D IC50	selectivity ratio	1.6
CNC[C@H](O)c1cccc(OCCOCCOCC#Cc2cccc(Cn3c(-c4ccccc4)c(-c4ccccc4)c4c(=N)n([C@H]5CC[C@H](O)CC5)cnc43)c2)c1	ADRA1A (Homo sapiens, UniProt P35348)	agonist, immunoblot, item: phospho-ERK1/2	HEK293 stably transfected with ADRA1A	10 µM	–	time to return to baseline ERK phosphorylation	≤ 30 min
N=C(N)NCCS(=O)(=O)O	SLC6A6 (Homo sapiens, UniProt P31641, G62A)	binding, microscale thermophoresis	–	3.91 µM, room temperature, added: 50 nM labelled protein	higher = more binding	normalised MST signal	-0.0512
CC(=O)N[C@@H](CCC(C)C)C(=O)N[C@H](C(=O)N[C@@H](CO)C(=O)N[C@@H](CC(=O)O)C(=O)COC(=O)c1c(C)cccc1C)C(C)(C)C	CASP8	enzyme activity, inhibitor	–	–	–	kinact/KI	42000 M⁻¹ s⁻¹
CCN(CC)C(CO)c1cccc2c(C)c(C)oc12 (centres unmarked)	LPAR1 (Homo sapiens, UniProt Q92633, W210A)	G-protein dissociation, agonist, NanoBiT	HEK-293T	100 nM, W210A mutant	baseline: baseline luminescence	fold change	0.632 and 0.476 and 0.663 and 0.935 and 0.6 and 0.759
O=C1c2sc(-c3ccc(N4CCC(CO)CC4)nc3F)nc2CCN1c1cccnc1	TARDBP aggregated	radioligand binding	control brain sarkosyl-insoluble extract	200 nM	–	specific binding	0.274 nM
CCCCCCCC/C=C\CCCCCCCC(=O)NCCO	Trpv1 (Mus musculus, UniProt Q704Y3, T551V)	ion current, agonist, whole-cell patch clamp	–	T551V	baseline: 3 mM 2-APB	maximal open probability	0.37 ± 0.09
CO[C@@H]1[C@H](O)[C@@H](COP(=O)(O)OP(=O)([O-])C(Cl)(Cl)P(=O)(O)OP(=O)(O)OC[C@H]2O[C@@H](n3cnc4c(=O)[nH]c(N)nc43)[C@H](O)[C@@H]2O)O[C@H]1n1c[n+](C)c2c(O)nc(N)nc21	DCPS	substrate, HPLC	–	concentration not given, 30 min	–	hydrolysis	0%
CC[C@H](C)[C@H](NC(=O)[C@H](CCCC(=O)O)NC(=O)[C@H](CC(=O)O)NC(C)=O)C(=O)N[C@@H](CC(=O)O)C(=O)COC(=O)c1c(C)cccc1C	CASP8	enzyme activity, inhibitor	–	–	–	kinact/KI	730000 M⁻¹ s⁻¹
O=C1c2sc(-c3ccc(N4CCC(F)C4)nc3F)nc2CCN1c1cccnc1 (centres unmarked)	TARDBP aggregated	radioligand binding	human, FTLD-TDP type B extract	added: radioligand 72.89 nM	–	specific binding	5.39 nM and 4.51 nM
O=c1c(-c2ccc(F)c(N3CCCC3)c2)coc2cc(O)ccc12	HSD3B1 (Homo sapiens, UniProt P14060)	[3H]-DHEA conversion	LNCaP	0.1 µM, normalized to protein, unit not given	baseline: vehicle	DHEA metabolism	0.65
CC(C)Oc1cc(Cl)ccc1CNc1cc(-c2ccccc2)nc2ncnn12	GPR3 (Homo sapiens, UniProt P46089, Q215A)	cAMP level, cAMP GloSensor	–	1 µM	higher = more cAMP	cAMP luminescence	23400 a.u. and 20400 a.u. and 13300 a.u. and 14800 a.u. and 22300 a.u.
C[n+]1cn([C@@H]2O[C@H](COP(=O)(O)OP(=O)([O-])C(F)(F)P(=O)(O)O)[C@@H](O)[C@H]2O)c2nc(N)nc(O)c21	DCPS	substrate, HPLC	–	concentration not given, 15 min	–	hydrolysis	2.9 ± 0.2%
O=C(CC1CC2CCC1C2)NCCNC(=O)Cn1c(=O)[nH]c(=O)c2ccccc21 (centres unmarked)	PARP2 (Homo sapiens, UniProt Q9UGN5)	enzyme activity, inhibitor	–	0.5 µM	–	inhibition	91%
CC1(C)C[N+]2=Cc3ccc4[n]3[Au-]23[n]2c(ccc2-c2nc5ccccc5nc2-4)C=[N+]3C1.F[P-](F)(F)(F)(F)F	DNA topoisomerase 1 (TOP1, Homo sapiens, UniProt P11387)	–	–	–	–	Hill coefficient	1.8
C#CCOC(=O)[C@]1(C)C=C(C(=O)OC(C)(C)C)C(=O)CC1	MAPK8 (Homo sapiens, UniProt P45983)	enzyme activity, D-SENSOR	–	133.3 µM, single replicate	–	normalized kinase activity	0.258 and 0.308 and 0.279
CC[C@H](C)[C@H](NC(=O)[C@@H](NC(=O)[C@H](CCCCN)NC(=O)[C@@H](N)[C@@H](C)O)C(C)C)C(=O)N[C@@H](CC(C)C)C(=O)N[C@@H](Cc1c[nH]cn1)C(N)=O	Microtubule-associated protein tau, PHF6* peptide (MAPT, Homo sapiens, UniProt P10636)	fibril formation, ThT fluorescence	–	5-fold of peptide, 240 min, pH 7.4, added: Ac-PHF6* 25 µM, heparin	baseline: untreated	ThT fluorescence	5 ± 1%
N#CN1CC[C@H](C(=O)Nc2nc3c(s2)CN(C(=O)Cn2cc(COCCOCCOCCOCCNC(=O)CCCC[C@@H]4SC[C@@H]5NC(=O)N[C@@H]54)nn2)CC3)C1	USP15 (Homo sapiens, UniProt Q9Y4E8)	probe binding, affinity probe, neutravidin pull-down LC-MS/MS	HEK293T, cell lysate	5 µM, 1 h, mean of three replicates, unit not given	higher = more pulled down	iBAQ abundance	1.81e+06
CC(=O)N[C@@H](CC(C)C)C(=O)N[C@H](C(=O)N[C@@H](Cc1c[nH]cn1)C(=O)N[C@@H](CC(=O)O)C(=O)COC(=O)c1c(C)cccc1C)C(C)(C)C	CASP10	enzyme activity, inhibitor	–	–	–	kinact/KI	321000 M⁻¹ s⁻¹
CCCCCC(O)/C=C/C=O (centres unmarked)	Bleomycin hydrolase (Homo sapiens, UniProt Q13867)	competitive isoTOP-ABPP	proteome, soluble, MDA-MB-231	100 µM, 60 min, added: iodoacetamide probe	baseline: DMSO over compound-treated, higher = stronger cysteine blockade	isoTOP-ABPP competition ratio	1.1
CC(=O)N[C@@H](CO)C(=O)N[C@H](C(=O)N[C@@H](CCC(=O)O)C(=O)N[C@H](C(=O)N[C@@H](CC(=O)O)C(=O)COC(=O)c1c(C)cccc1C)C(C)C)C(C)(C)C	CASP10	enzyme activity, inhibitor	–	–	–	kinact/KI	207000 M⁻¹ s⁻¹
COC(=O)[C@@]1(C)C=C(C(=O)Nc2cccc(C(=O)Nc3ccc(Nc4nccc(-c5cccnc5)n4)c(C)c3)c2)C(=O)CC1	MAPK1 (Homo sapiens, UniProt P28482)	enzyme activity, inhibitor	–	0.1829 µM, unit not given	baseline: vehicle	remaining activity	0.853 and 0.998 and 0.886
CC(=O)N[C@@H](CC(=O)O)C(=O)N[C@@H](Cc1ccc2ccccc2c1)C(=O)N[C@@H](C)C(=O)N[C@@H](CC(=O)O)C(=O)COC(=O)c1c(C)cccc1C	CASP10	enzyme activity, inhibitor	–	–	–	kinact/KI	118000 M⁻¹ s⁻¹
CCCCCCCCCCCCCCCC(=O)NCCCC[C@H](NC(=O)[C@H](CCC(=O)O)NC(=O)[C@H](Cc1ccc(O)cc1)NC(=O)[C@H](CCC(=O)O)NC(=O)COCC(=O)NCCCOCCOCCOCCCNC(=O)[C@H](Cc1c[nH]c2ccccc12)NC(=O)[C@H](CCCCN)NC(=O)[C@H](C)NC(=O)[C@H](CCCCNC(=N)N)NC(=O)[C@H](CCC(N)=O)NC(=O)[C@H](Cc1c[nH]cn1)NC(=O)[C@H](CCSC)NC(=O)[C@H](CC(C)C)NC(=O)[C@H](CCC(N)=O)NC(=O)[C@@H](NC(=O)[C@H](CCC(=O)O)NC(=O)C(C)(C)NC(=O)[C@@H](NC(=O)C(C)(C)N)C(C)C)[C@@H](C)CC)C(=O)N[C@@H](CCC(=O)O)C(=O)N[C@@H](Cc1ccc(O)cc1)C(=O)N[C@@H](CCC(=O)O)C(N)=O	PTH1R (Homo sapiens, UniProt Q03431)	agonist	Saos-2 with cAMP reporter	1 pM, 30 min, ligand-on phase	higher = more cAMP	cAMP luminescence AUC	0.9 a.u.
CC(=O)N[C@@H](CCC(N)=O)C(=O)N[C@@H](CC(C)C)C(=O)N[C@@H](CCCC(=O)O)C(=O)N1CCC[C@H]1C(=O)N[C@@H](CC(=O)O)C(=O)COC(=O)c1c(C)cccc1C	CASP8	enzyme activity, inhibitor	–	–	–	kinact/KI	1.13e+06 M⁻¹ s⁻¹
CCCCCCCCCCCCC/C=C/C=O	DEP domain-containing mTOR-interacting protein (Homo sapiens, UniProt Q8TB45)	competitive isoTOP-ABPP	Ramos soluble proteome	100 µM, 60 min, added: iodoacetamide probe	baseline: DMSO over compound-treated, higher = stronger cysteine blockade	isoTOP-ABPP competition ratio	1

Excerpt of the above:
SMILES	target	test	test system	conditions	how to read	endpoint	value
CC[C@H](C)[C@H](NC(=O)[C@@H](NC(=O)[C@H](CCCCN)NC(=O)[C@@H](N)[C@@H](C)O)C(C)C)C(=O)N[C@@H](CC(C)C)C(=O)N[C@@H](Cc1c[nH]cn1)C(N)=O	Microtubule-associated protein tau, PHF6* peptide (MAPT, Homo sapiens, UniProt P10636)	fibril formation, ThT fluorescence	–	5-fold of peptide, 240 min, pH 7.4, added: Ac-PHF6* 25 µM, heparin	baseline: untreated	ThT fluorescence	5 ± 1%
N#CN1CC[C@H](C(=O)Nc2nc3c(s2)CN(C(=O)Cn2cc(COCCOCCOCCOCCNC(=O)CCCC[C@@H]4SC[C@@H]5NC(=O)N[C@@H]54)nn2)CC3)C1	USP15 (Homo sapiens, UniProt Q9Y4E8)	probe binding, affinity probe, neutravidin pull-down LC-MS/MS	HEK293T, cell lysate	5 µM, 1 h, mean of three replicates, unit not given	higher = more pulled down	iBAQ abundance	1.81e+06
CC(=O)N[C@@H](CC(C)C)C(=O)N[C@H](C(=O)N[C@@H](Cc1c[nH]cn1)C(=O)N[C@@H](CC(=O)O)C(=O)COC(=O)c1c(C)cccc1C)C(C)(C)C	CASP10	enzyme activity, inhibitor	–	–	–	kinact/KI	321000 M⁻¹ s⁻¹
